Published values of several laboratories.
Each numbered part is a random draw from the data of one study; scales do not carry over between parts. Changes are numbered by the printed parent chain.

Series 1
Target: CCNF, cyclin fold, Cln2 fusion (human)
Technique: yeast growth competition, sequencing
Sample: yeast
Notes: weak parent motif
Relative to: not given
Direction: higher = stronger binding
Parent: MASTL docking peptide (human); PMIAKNLMCELDE
| Change | normalised enrichment score |
| --- | --- |
| PLIAKNLMCELDE [M2L] | -0.0701 |
| PMIAQNLMCELDE [K5Q] | -0.287 |
| PMKAKNLMCELDE [I3K] | 0.0481 |
| PMIAKNLRCELDE [M8R] | -0.0552 |
| PMIAKNLICELDE [M8I] | -0.209 |
| PMIAKNLMCQLDE [E10Q] | 0.0926 |
| PSIAKNLMCELDE [M2S] | 0.154 |
| PMIAYNLMCELDE [K5Y] | -0.164 |
| PMIAKNLLCELDE [M8L] | 0.107 |
| PYIAKNLMCELDE [M2Y] | 0.0121 |
| PMIAKNLMCEYDE [L11Y] | -0.121 |
| PMIAMNLMCELDE [K5M] | -0.206 |
| PMIAKNLCCELDE [M8C] | -0.508 |
| PMIAKNLMCMLDE [E10M] | 0.377 |
| PMIAKNLMCFLDE [E10F] | 0.275 |
| PMIAKNLNCELDE [M8N] | -0.55 |
| PMISKNLMCELDE [A4S] | -0.219 |
| PMIAKNLMCETDE [L11T] | 0.239 |

Series 2
Target: RING finger protein unkempt homolog, zinc fingers 1-6, GST-SBP tag (UNK, Homo sapiens, UniProt Q9C0B0, residues 30-357)
Sequence of UniProt Q9C0B0 (30-357, looked up): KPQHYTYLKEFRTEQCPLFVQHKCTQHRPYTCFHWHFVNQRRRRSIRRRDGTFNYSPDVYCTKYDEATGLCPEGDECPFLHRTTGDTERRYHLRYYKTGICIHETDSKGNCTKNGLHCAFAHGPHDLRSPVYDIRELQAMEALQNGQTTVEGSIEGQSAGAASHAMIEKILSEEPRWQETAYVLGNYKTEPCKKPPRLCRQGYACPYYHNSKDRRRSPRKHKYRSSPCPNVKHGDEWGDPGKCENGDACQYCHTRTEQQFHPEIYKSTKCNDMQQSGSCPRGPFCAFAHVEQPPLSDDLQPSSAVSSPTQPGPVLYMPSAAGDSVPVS
Technique: RNA Bind-n-Seq
Form: RNA
Sample: in vitro
Tested at: not given
Notes: RNA with constant flanks, human and mouse sites, ends assumed
Relative to: input RNA pool
Direction: higher = stronger binding
All sequences stand within: GGGAGUUCUACAGUCCGACGAUC … CAACAGAGGAUUGAGCAUCA
| Strand | bound/input enrichment |
| --- | --- |
| CACUAGAGAUUUUUCUGUUUUUGAAAAUAGUUCGUGCUCUUCGGUUUUUGUUAUUGAACUGUUUCAUGUAUUUUUUAAAGACAUUUGAGGGGAGGAGGAUUAUUAUGAAUGGGAAAAAAA | 1.48 ratio |
| AUGAAGCCAUUAGACUAAUUGCUUGCCAUCAUGAGCAGAAGCAAACGUGACAACAAUUUUUAUAGUGUAGAGAUUGGAGAUUCUACAUUCACAGUCCUAAAACGAUACCAGAAUUUAAAG | 0.487 ratio |
| CAGGUGACCCAAUGACAACAGAAGAUGAAAGGCAUUAAGAAAAGUCCUACGGAGGAAUCUCUGUACCUGGAGUACUCUCACCAAACAGAAGGCUGCAUCUUUCCUCUCCACACGUCUGUA | 0.104 ratio |
| UAUUCAGCCUGGGCAUUGCUCGCUGGGAGAGCCAGACCACCAGGCUCUUCCUCACCCUCCUUAGGAAGUGGUCUUCAGCACUGUUCUGACCCCAGGUGUUACCAGCUGGUUCAUCACAGG | 0.171 ratio |
| GACUCUGUCUCAAAAAAAAAAAAAAGGAAAACUCUGUGAUGGACAUUUGUUUAGUAAAUCCCUUCAGUAUUUAUCCCUCCUUUCCCCACAGCAGCUUUCUUUCCUGUCAACUAGAAAGGA | 1.27 ratio |
| CUGUUGGGGUGGGUAUAAAAGAUGGGGUCUGUAAAAUCUUUCUUUCUUAGAAAUUUAUUUCCUAGUUCUGUAGAAAUGGUUGUAUUAGAUGUUCUCUAUCAUUUAAUAAUAUACUUGUGG | 2.69 ratio |
| UGUUAAUAAAUUAGAAGCUAUUAACUAAACAUACCUAAAUGACACAGCUAAUAAAUGGAUUAGUUUCAUGUUCAUAACAAACUGAAAAAUACAUUACUCCAAGAAAAAGUCUUGAUACUG | 0.91 ratio |
| GUUACCUGUGUUGCUGCCUCUCCCCACAAAGACUCUGUGUUUCUUUCAUGUAGUGAGGACAGUAGAAUUUUGCUCUGGGAUACCCGCUGUCCCAAGCCGGCAUCACAGAUGGCCUGCAAU | 0.628 ratio |

Series 3
Target: ABI1, truncated, D143A, DHFR fusion (Arabidopsis thaliana)
Technique: DHFR PCA, deep sequencing
Sample: yeast
Notes: methotrexate growth selection, single substitutions
Together with: (+)-ABA 4.8 µM
Relative to: wild-type fitted maximum
Direction: higher = stronger binding
Parent: PYL1, truncated, DHFR fusion (Arabidopsis thaliana); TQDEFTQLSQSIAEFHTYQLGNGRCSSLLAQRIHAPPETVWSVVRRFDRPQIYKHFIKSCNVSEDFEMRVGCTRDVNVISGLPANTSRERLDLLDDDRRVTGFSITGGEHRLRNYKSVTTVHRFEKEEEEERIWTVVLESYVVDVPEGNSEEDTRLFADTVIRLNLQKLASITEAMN
| Change | relative binding score [%] |
| --- | --- |
| Q7L | 69 |
| V78Q | 0.584 |
| P83A | 45.3 |
| P37G | -0.594 |
| T106R | 17.1 |
| G23D | 61.7 |
| R32T | 73.3 |
| F56K | -2.19 |
| L82E | 7.25 |
| V43I | 73.7 |
| M176K | 68.4 |
| Q31C | 16.3 |
| R46F | -22 |
| V121H | -4.01 |
| F56S | -7.55 |

Series 4
Target: RNA binding protein fox-1 homolog 2, RRM domain, GST-SBP tag (RBFOX2, Homo sapiens, UniProt O43251-10, residues 100-194)
Technique: RNA Bind-n-Seq
Form: RNA
Sample: in vitro
Tested at: 365 nM
Notes: natural RNA segment, single round, ends assumed
Relative to: no-protein control
Direction: higher = stronger binding
All sequences stand within: GGGAGUUCUACAGUCCGACGAUC … UGGAAUUCUCGGGUGCCAA
Construct (chain): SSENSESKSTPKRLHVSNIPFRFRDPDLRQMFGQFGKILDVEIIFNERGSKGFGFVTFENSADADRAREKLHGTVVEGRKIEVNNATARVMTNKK
| Strand | RBNS enrichment (R) |
| --- | --- |
| UUACAGCUUCCUCUGGGAGGUCGUGUAGACCCAGUGGGCAAGCAGGACAAGGGCCCAGAACUGAAACUUGAUCUUAAAAUUUACCAUGGAAAUGAGGUCUUAGGCUCUUC | 0.244 |
| GUUUUUACUUUUUUAAUGUAAGUCUGAGUCUUUGUAAUUAUUGAAUUGUGAGAACAAUUUUGAACAAUUUACCUGUCAAUAAAGCAGAAGGCAGCAGUUUUAAAGUUCUC | 0.447 |
| CACAGGACCUGUCCCUGUGAGCGCCUCGGUGGUGCCAAGCCUGCAGGGAGUGGGAGCCGGGUGGACAUCUGAGGCUGGGGCCAGUGUACCAGGGCAGCCCCUGAGUCCAC | 0.333 |
| AAGGUGGUGGGCUAGUCCUGUGUCCUCCUCCACUUCCCAUGCCUCUAUGUUACCCAUCUGUGUCUCCUGUGCAGAAGGAGAGGAAGGGGCAUUAAGAGAUGAAGGGUGAU | 0.758 |
| AGUAGUGAAGGGACUGUGUUGCUUGUGAAGCGGUGUAGUAGCAUUUUUGCAGAUUCUUGGCUGGGUUUAGUGUACUGAUCUAGAAAAGCUGUUUUUCUGCUCCUUUGUGG | 0.827 |
| CAUAAACUUCCUGUUCUCCAAAACCUCAAAGAGAUAGAGUUAAUGAGUUGUUGUUUUUUUUUAAAUGGGGGUAGUUUUCUAUCUGUCAUGGGCUCUAGCAUCUACUCCGC | 0.529 |
| GCUGCCACCUGGCAUUUAGUUUAGUGCGGCCAGUGACUGCUUCAAGAGACUUCUGACCUUGCUUCCCAACAGCUAAAGGGCUAACUGUCUUUAUGGAAGGCACUUGUUAC | 0.367 |
| AGACAGCGGGUUGCAGCCACCCCACACUGACCGGCCGCUGAGGAGCAGAUAACCACUUGUUCUUUACUUUUUACAGGUGUGGGAUCCCGAUCCUGAGCUGUGUCCUCUGU | 0.241 |
| CCAAUUCCCCAGGGAAGGAAACUGUUGUGUCCAAUCCCCAUUAAAGACAAAUUGAUCAGUGCUUCCCACUCCAAGUCAAGCUUUAUGCAGGAAUGCUUUUCCAUCAGGGA | 0.405 |
| UGCAAAGCACCUGGAGAUGUUUGCUGGGAGAUAGACUCCCACUCCACAAAGGUGCUGGGUGGCUCUCCGGACAGGAGCUGGCCUGACUCUCACUCCUCUGAGGCUUUCCU | 5.19 |
| CAUAGAGCGCCCCCUACUUCCCAGUUAACUCCCAGUUCUUCUCCCUGAGCUUGGUAUUUGUCAUGUGCCAACUCUGACUCUGAGGUGGGCAGUGAGGGAAGCAGCCCCGG | 0.469 |
| UCUUGAUUUUACAGGUGAGGGUGGUUGCCAAAGGUGAUAAGAAAAGCAGCCAACAGGCUCCCUCUCACUUAAGAGAGUUCUAAUUAAUAACACUAAAUUCUUCCUGAGAA | 0.47 |

Series 5
Target: Histone acetyltransferase KAT6A, winged helix 2, GST fusion (KAT6A, Homo sapiens, UniProt Q92794, residues 85-181)
Technique: protein binding microarray
Form: double-stranded DNA, one strand shown
Sample: in vitro
Tested at: not given
Notes: 8-mer, flanks averaged, mean of 2 arrays, mostly near background
Relative to: not given
Direction: higher = stronger binding
Construct (chain): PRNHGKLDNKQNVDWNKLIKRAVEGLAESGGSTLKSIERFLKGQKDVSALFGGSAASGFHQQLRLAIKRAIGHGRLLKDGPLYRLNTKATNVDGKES
| Strand | E-score |
| --- | --- |
| CCGCCGAA | 0.246 |
| GTAGTCGA | -0.0522 |
| CTGCCTAC | 0.147 |
| AAGCAGTG | -0.00941 |
| GGGAGACC | -0.146 |
| ATCTATTA | -0.00173 |
| AGAGAACA | 0.0926 |
| ACTTTGGC | 0.0262 |
| CAGTTTTA | 0.0746 |
| CCATCTAG | -0.0515 |
| AAGGGTTA | -0.155 |
| CGGGCTAA | 0.0593 |
| CGAACTTC | -0.00834 |
| ATTATGCC | 0.15 |
| ATGCATGA | -0.02 |
| CGATCGGA | -0.0531 |
| GCTGTAGA | 0.0914 |
| AGGAGTGA | -0.0525 |
| GCTCTCAC | -0.125 |
| ACCACGGT | -0.205 |
| CCGCCCGG | 0.325 |
| ATTTTGGC | 0.232 |
| CCACGCGA | -0.0696 |
| AGGCCGCC | 0.0532 |
| CATTGCCA | 0.0857 |

A few entries again (series 3):
| Change | relative binding score [%] |
| --- | --- |
| V78Q | 0.584 |
| P83A | 45.3 |
| P37G | -0.594 |
| T106R | 17.1 |
| G23D | 61.7 |
| R32T | 73.3 |
| F56K | -2.19 |
| L82E | 7.25 |
| V43I | 73.7 |
| M176K | 68.4 |
| Q31C | 16.3 |
| R46F | -22 |
